# Experimental data of several laboratories.
# A part holds a random share of what one study measured. Values joined by “and” are separate records of one study, mostly repeats; a detail may differ.
# Sequence of UniProt P11229 (whole entry, looked up): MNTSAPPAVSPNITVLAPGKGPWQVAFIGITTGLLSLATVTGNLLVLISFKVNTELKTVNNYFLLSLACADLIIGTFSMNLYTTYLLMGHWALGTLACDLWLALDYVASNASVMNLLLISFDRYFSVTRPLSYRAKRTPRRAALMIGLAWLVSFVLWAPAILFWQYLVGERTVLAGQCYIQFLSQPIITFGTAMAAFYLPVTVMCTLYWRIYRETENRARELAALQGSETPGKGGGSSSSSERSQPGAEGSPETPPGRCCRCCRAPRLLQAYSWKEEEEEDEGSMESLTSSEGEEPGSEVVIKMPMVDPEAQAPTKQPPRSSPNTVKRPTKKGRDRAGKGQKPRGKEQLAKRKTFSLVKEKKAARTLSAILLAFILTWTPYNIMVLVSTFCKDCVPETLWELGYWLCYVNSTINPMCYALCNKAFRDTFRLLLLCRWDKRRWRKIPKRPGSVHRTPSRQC
# Sequence of UniProt P41145 (whole entry, looked up): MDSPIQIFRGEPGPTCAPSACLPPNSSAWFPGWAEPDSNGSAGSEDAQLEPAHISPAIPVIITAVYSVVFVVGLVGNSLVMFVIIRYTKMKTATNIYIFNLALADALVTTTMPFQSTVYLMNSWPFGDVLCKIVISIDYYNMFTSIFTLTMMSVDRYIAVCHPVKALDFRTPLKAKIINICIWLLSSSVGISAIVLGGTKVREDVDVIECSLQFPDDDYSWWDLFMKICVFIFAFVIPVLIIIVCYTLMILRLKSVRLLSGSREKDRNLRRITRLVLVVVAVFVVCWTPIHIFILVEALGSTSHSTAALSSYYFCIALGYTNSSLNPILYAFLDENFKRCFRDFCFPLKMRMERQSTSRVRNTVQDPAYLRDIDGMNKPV
# Sequence of UniProt P35372 (whole entry, looked up): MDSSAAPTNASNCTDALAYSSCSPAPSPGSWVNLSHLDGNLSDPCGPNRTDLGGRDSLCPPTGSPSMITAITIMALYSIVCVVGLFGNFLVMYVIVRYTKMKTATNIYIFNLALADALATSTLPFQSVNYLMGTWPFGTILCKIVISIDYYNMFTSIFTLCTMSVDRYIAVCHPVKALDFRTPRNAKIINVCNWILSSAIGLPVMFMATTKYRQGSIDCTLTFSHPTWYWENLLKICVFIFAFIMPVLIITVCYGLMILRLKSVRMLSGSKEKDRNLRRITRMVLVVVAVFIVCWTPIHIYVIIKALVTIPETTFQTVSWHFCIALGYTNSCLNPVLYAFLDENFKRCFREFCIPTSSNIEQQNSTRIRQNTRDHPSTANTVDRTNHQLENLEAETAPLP
# Sequence of UniProt P20309 (whole entry, looked up): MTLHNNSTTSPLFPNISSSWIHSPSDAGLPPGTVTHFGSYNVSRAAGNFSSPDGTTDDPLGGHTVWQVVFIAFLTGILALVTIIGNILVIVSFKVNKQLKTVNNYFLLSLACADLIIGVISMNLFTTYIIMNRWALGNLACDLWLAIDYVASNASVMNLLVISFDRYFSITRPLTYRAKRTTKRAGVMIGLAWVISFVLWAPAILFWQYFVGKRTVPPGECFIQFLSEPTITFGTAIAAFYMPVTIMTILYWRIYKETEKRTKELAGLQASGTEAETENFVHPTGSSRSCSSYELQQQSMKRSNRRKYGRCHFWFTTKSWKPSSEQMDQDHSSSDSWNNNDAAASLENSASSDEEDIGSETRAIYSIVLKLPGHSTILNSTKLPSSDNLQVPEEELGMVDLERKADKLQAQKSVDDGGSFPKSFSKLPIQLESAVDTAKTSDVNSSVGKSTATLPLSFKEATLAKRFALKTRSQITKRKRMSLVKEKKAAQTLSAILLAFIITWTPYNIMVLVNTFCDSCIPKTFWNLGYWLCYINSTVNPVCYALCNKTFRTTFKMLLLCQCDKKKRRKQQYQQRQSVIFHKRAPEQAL
# Sequence of UniProt P21918 (whole entry, looked up): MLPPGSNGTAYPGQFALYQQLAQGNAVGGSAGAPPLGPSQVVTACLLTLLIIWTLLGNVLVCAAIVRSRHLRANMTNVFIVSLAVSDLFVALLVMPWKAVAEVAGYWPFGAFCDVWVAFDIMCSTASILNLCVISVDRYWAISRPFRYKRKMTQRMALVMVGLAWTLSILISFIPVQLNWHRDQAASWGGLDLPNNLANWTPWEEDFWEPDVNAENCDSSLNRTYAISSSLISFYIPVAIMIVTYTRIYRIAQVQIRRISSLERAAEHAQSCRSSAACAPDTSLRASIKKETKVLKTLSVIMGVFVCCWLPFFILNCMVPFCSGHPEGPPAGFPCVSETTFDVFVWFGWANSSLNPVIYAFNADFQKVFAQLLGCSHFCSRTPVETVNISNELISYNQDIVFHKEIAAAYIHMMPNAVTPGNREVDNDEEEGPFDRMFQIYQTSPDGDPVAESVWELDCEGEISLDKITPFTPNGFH
# Sequence of UniProt P41143 (whole entry, looked up): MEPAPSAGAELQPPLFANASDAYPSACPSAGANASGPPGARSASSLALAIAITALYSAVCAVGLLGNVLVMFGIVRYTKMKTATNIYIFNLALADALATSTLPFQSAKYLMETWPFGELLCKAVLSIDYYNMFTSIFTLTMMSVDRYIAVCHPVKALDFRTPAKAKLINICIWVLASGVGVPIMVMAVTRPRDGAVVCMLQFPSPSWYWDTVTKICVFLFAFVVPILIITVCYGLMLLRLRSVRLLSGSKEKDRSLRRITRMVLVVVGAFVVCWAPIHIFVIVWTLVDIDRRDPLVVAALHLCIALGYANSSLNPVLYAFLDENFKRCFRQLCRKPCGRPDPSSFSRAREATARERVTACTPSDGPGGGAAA

# Block 1 — cell line: HaCaT; concentration: 100 µM; time: 36 h
Structure (SMILES),viability [%]
CCOC(=O)c1cncn1[C@H](C)c1ccccc1,87.5
O=c1[nH]c2ccccc2n1C1CCN(CCCC(c2ccc(F)cc2)c2ccc(F)cc2)CC1,9.72
COC[C@@H](NC(C)=O)C(=O)NCc1ccccc1,97.2
CCN1C[C@]2(OC(=O)c3ccccc3NC(C)=O)CC[C@H](OC)[C@@]34[C@@H]2C[C@@H]([C@@H]13)[C@@]1(O)C[C@H](OC)[C@H]2C[C@@H]4[C@]1(O)[C@H]2OC,85.7
C[C@]12CCC(=O)C=C1CC[C@@H]1[C@@H]2CC[C@@]2(C)[C@H]1CC[C@]2(C)O,72
COc1ccc2c(c1)[C@]13CCCC[C@@H]1[C@H](C2)N(C)CC3,74.2
CN[C@H]1C[C@@H](N)[C@H](O)[C@@H](O[C@@H]2O[C@H](CO)[C@H](O)[C@@H]3OC4(O[C@H]23)O[C@H]([C@@H](N)CO)[C@H](O)[C@H](O)[C@H]4O)[C@@H]1O (stereo partly drawn),47.1

# Block 2 — effect on: enzyme activity; action: inhibitor; method: radiometric; concentration: 0.5 µM
# Target: Serine/threonine-protein kinase 33 (STK33, Homo sapiens, UniProt Q9BYT3)
# Sequence of UniProt Q9BYT3 (whole entry, looked up): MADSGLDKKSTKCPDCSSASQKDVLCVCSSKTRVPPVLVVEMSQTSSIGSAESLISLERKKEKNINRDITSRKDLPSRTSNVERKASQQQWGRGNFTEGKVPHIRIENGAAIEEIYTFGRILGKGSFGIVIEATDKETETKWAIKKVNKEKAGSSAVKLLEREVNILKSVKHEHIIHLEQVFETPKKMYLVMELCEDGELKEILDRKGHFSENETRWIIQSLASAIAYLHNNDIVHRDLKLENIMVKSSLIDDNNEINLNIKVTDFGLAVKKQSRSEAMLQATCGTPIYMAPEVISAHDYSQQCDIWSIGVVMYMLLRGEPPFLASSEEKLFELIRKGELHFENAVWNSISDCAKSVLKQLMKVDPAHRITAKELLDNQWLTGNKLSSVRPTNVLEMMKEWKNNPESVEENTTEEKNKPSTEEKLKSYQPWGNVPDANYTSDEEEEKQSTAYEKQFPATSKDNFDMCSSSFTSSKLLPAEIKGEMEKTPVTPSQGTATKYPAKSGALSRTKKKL
SMILES,remaining activity
O=C1NC(=O)C(c2cn(CCCO)c3ncccc23)=C1c1cnccn1,82.8%
CO[C@H]1C[C@@H]2CC[C@@H](C)[C@@](O)(O2)C(=O)C(=O)N2CCCC[C@H]2C(=O)O[C@H]([C@H](C)C[C@@H]2CC[C@@H](O)[C@H](OC)C2)CC(=O)[C@H](C)/C=C(\C)[C@@H](O)[C@@H](OC)C(=O)[C@H](C)C[C@H](C)/C=C/C=C/C=C/1C,105%
Cc1ccc(Nc2nccc(N(C)c3ccc4c(C)n(C)nc4c3)n2)cc1S(N)(=O)=O,87.1%
C#Cc1cccc(Nc2ncnc3cc(OCCOC)c(OCCOC)cc23)c1,90.8%
Cn1sc(=O)n(Cc2ccccc2)c1=O,101%
COc1cc2ncnc(Nc3ccc(Oc4ccccc4)cc3)c2cc1OC,96.3%
Cc1nc(-c2ccccc2)c(-c2ccncc2)o1,99.3%
COc1ccc(C(=O)Nc2sc3c(c2C(N)=O)CCCC3)cc1OC,99.5%
NCCNc1ncc(C(N)=O)c(Nc2cccc(C(F)(F)F)c2)n1,81.9%
COc1cc2nccc(Oc3ccc(NC(=S)NC(=O)c4ccccc4C)cc3)c2cc1OC,94.6%
N#CC(C#N)=C(N)/C(C#N)=C/c1ccc(O)cc1,93.2%
O=c1cc(N2CCNCC2)oc2c(-c3ccccc3)cccc12,86.1%
Nc1[nH]nc2nc3ccccc3nc12,98.7%
O=C1NC(=O)c2cc(Nc3ccc(F)cc3)c(Nc3ccc(F)cc3)cc21,99.3%
O=C1Nc2ccc3ncsc3c2/C1=C/c1cnc[nH]1,35.7%
COc1cc2ncnc(Nc3ccc(F)c(Cl)c3)c2cc1OCCCN1CCOCC1,90.4%
O=C(CCCc1ccc(-c2ccccc2F)cc1)Nc1ccc(O)cc1,97%

# Block 3 — Compound: CCOc1ccc(Nc2c3c(nc4ccccc24)CCC3)cc1; organism: Leishmania donovani
effect on,strain,sample,concentration,time,notes,inhibition
parasite growth,DD8 amphotericin B-resistant,promastigotes,0.0066 µM,,,1% and 6% and 2%
parasite growth,DD8 amphotericin B-resistant,promastigotes,0.33 µM,,,5% and 12% and 4% and 9% and 1%
parasite killing,DD8,promastigotes,0.16 µM,24 h,,9% and 13%
parasite growth,,,0.4 µM,,"intracellular, amastigote",1%
parasite growth,DD8 amphotericin B-resistant,intracellular amastigotes,0.4 µM,,,18% and 11% and 25% and 15% and 16% and 14%
parasite growth,,,40 µM,,"intracellular, amastigote",100%

# Block 4 — effect on: cell-free assay; concentration: 10 µM
# SMILES: C[C@@H](NC(=O)Nc1cc2[nH]ncc2c(CO)n1)c1ccccc1
target,inhibition
"CHRM1 (Homo sapiens, UniProt P11229)",-1.16%
"OPRM1 (Homo sapiens, UniProt P35372)",6.82%
"OPRK1 (Homo sapiens, UniProt P41145)",10.3%
"DRD5 (Homo sapiens, UniProt P21918)",21.1%
"OPRD1 (Homo sapiens, UniProt P41143)",-18.7%
"CHRM3 (Homo sapiens, UniProt P20309)",-5.17%

# For quick reference, copied from above (block 3):
effect on,strain,sample,concentration,time,notes,inhibition
parasite growth,DD8 amphotericin B-resistant,promastigotes,0.0066 µM,,,1% and 6% and 2%
parasite growth,DD8 amphotericin B-resistant,promastigotes,0.33 µM,,,5% and 12% and 4% and 9% and 1%
parasite killing,DD8,promastigotes,0.16 µM,24 h,,9% and 13%
parasite growth,,,0.4 µM,,"intracellular, amastigote",1%
parasite growth,DD8 amphotericin B-resistant,intracellular amastigotes,0.4 µM,,,18% and 11% and 25% and 15% and 16% and 14%
